Experimental data from different studies.
Compare with care: the assays were run in different laboratories. Several values in a cell are separate wells, animals, samples, runs or records. ± gives the spread as reported.
Sequence of UniProt D0VWV4 (whole entry, looked up): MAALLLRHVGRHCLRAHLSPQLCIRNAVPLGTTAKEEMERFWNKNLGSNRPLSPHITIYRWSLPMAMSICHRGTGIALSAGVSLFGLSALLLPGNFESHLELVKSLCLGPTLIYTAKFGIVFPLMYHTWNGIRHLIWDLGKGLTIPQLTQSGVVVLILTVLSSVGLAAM
Sequence of UniProt A5GZW8 (whole entry, looked up): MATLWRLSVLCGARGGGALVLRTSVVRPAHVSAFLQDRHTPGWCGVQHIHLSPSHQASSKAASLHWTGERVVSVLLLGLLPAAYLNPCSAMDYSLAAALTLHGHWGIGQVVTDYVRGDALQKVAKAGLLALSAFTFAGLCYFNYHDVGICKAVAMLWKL
Sequence of UniProt Q007T0 (whole entry, looked up): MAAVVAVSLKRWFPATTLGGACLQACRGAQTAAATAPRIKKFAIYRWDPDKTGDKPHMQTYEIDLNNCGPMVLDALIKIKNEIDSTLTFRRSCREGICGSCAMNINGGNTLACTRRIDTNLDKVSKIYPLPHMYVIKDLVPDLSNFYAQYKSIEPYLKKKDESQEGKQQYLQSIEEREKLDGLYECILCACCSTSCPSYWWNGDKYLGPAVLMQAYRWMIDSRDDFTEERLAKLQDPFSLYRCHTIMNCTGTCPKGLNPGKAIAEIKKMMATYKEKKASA
Sequence of UniProt Q9DB29 (whole entry, looked up): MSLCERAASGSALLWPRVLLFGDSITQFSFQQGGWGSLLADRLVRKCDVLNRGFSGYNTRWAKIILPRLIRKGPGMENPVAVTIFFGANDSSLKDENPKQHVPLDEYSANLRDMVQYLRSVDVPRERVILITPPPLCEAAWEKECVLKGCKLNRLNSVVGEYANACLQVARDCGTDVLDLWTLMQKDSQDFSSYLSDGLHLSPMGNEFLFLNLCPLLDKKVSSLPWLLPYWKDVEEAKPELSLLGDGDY
Sequence of UniProt Q9ULW8 (whole entry, looked up): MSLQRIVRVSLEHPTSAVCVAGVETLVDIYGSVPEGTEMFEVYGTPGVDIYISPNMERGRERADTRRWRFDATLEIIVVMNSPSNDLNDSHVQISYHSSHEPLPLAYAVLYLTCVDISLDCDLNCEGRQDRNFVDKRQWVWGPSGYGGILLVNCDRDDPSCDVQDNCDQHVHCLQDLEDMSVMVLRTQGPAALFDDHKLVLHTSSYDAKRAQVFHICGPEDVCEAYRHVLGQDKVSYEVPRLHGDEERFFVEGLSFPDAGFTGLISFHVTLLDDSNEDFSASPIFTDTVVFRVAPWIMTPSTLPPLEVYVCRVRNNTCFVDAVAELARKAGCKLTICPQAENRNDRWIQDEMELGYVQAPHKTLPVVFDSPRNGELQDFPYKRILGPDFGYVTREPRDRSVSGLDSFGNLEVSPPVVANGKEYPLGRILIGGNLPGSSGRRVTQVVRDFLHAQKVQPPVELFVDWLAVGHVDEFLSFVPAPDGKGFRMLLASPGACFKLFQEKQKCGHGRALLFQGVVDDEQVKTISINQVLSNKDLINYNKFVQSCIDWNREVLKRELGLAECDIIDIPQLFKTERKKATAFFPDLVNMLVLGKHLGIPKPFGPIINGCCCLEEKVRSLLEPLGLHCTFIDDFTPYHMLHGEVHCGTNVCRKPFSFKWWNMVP
Sequence of UniProt P15735 (whole entry, looked up): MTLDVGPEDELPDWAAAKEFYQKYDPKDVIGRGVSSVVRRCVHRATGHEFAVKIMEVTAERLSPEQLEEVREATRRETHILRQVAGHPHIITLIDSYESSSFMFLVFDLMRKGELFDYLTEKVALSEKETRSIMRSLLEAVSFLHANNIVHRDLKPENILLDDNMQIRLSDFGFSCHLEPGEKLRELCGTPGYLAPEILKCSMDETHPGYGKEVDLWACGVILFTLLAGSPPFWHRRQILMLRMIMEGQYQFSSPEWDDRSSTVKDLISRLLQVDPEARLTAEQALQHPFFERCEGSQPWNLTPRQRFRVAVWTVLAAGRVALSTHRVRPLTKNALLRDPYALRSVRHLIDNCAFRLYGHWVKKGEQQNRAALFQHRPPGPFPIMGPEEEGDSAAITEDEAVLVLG
Sequence of UniProt O96017 (whole entry, looked up): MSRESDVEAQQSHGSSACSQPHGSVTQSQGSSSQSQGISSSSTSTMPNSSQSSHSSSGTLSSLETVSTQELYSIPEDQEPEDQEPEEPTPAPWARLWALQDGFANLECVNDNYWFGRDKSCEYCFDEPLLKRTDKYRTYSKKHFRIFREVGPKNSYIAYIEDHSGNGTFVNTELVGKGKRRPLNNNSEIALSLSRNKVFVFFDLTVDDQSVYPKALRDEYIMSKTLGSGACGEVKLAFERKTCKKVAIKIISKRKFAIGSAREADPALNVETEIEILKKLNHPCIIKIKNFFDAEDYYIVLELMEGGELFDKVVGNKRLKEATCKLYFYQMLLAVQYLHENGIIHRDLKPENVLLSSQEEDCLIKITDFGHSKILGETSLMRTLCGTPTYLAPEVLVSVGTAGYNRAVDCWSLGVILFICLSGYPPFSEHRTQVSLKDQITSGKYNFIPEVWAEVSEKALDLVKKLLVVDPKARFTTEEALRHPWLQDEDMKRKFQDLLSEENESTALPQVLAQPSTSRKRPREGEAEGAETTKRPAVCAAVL
Sequence of UniProt O75385 (whole entry, looked up): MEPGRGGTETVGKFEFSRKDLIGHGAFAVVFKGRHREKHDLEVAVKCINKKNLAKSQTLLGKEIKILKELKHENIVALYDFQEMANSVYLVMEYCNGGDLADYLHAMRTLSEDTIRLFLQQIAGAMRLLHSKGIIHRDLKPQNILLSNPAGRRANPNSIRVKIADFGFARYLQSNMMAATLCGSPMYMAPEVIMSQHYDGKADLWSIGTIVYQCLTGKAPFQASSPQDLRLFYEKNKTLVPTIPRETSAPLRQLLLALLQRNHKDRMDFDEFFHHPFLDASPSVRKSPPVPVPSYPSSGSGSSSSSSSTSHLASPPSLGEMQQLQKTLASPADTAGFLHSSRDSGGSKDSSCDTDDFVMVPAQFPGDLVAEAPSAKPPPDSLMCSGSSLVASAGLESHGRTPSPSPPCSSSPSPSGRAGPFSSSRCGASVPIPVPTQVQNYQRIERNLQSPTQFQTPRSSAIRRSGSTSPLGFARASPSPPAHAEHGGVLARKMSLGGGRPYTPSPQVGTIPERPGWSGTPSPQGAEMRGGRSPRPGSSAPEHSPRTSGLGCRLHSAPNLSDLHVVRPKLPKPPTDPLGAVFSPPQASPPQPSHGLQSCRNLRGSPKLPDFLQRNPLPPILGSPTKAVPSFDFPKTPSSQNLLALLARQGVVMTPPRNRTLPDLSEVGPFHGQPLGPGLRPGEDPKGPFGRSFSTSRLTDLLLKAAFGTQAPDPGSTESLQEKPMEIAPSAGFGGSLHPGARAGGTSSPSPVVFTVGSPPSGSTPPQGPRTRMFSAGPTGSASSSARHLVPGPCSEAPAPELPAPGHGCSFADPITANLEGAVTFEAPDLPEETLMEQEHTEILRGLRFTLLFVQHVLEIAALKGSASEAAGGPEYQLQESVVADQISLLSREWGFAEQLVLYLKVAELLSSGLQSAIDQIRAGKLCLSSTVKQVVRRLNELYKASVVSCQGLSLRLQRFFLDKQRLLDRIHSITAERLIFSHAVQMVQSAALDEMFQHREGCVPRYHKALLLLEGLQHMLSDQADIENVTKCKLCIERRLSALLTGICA
Sequence of UniProt P81908 (whole entry, looked up): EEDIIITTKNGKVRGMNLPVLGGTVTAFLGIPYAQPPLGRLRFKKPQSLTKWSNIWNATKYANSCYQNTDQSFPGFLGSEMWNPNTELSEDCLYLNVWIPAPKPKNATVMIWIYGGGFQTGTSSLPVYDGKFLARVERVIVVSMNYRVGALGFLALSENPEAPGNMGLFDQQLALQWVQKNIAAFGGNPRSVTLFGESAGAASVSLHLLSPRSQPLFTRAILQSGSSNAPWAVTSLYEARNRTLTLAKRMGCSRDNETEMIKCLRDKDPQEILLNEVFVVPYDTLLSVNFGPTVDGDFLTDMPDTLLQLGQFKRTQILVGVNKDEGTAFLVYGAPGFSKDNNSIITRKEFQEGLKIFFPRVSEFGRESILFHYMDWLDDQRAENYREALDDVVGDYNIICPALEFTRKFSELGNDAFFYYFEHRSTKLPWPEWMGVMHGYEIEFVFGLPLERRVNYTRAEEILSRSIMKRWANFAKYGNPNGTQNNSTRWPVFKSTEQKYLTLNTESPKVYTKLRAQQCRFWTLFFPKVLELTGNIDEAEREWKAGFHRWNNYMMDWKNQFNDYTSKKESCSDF
Sequence of UniProt P49146 (whole entry, looked up): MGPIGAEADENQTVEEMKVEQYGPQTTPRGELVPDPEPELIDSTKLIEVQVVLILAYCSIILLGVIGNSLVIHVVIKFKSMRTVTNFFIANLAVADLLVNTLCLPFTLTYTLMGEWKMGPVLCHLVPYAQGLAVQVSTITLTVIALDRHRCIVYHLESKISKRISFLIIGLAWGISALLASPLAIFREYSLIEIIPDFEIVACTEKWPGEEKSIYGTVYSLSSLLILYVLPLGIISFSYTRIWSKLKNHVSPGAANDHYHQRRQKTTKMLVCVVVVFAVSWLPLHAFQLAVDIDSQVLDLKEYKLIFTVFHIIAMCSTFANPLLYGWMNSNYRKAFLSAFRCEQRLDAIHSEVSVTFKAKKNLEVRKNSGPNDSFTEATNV
Sequence of UniProt P47936 (whole entry, looked up): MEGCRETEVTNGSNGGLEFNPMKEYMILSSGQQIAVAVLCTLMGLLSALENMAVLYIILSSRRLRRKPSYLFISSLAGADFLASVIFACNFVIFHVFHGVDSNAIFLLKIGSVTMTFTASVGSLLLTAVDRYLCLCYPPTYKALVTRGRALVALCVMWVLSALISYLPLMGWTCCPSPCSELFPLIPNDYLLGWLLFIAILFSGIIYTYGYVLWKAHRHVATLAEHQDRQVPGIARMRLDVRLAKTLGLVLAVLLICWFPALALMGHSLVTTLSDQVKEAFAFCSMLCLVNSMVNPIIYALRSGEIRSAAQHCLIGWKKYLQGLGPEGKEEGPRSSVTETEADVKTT

Cc1ccc(CC(=O)N2CCN(CC(OCc3ccc4ccccc4c3)c3ccc(Cl)cc3Cl)CC2)cc1 (stereo not shown)
activity vs control (Serine/threonine-protein kinase ULK1 (ULK1, Homo sapiens, UniProt O75385); enzyme activity, inhibitor, ADP detection; 0.1 µM): 141%

CCN(C)C(=O)Oc1ccc(/C=C/C(=O)N2CCc3ccccc3C2)cc1OC
selectivity ratio (Cholinesterase (BCHE, Equus caballus, UniProt P81908); Ellman; equine serum BuChE; baseline: AChE IC50 over BuChE IC50): 9.5

CON(C(=O)c1cn(C)nc1C(F)F)C(C)Cc1c(Cl)cc(Cl)cc1Cl (stereo not shown)
reaction velocity (SDHD/SDHC/SDHB (Sus scrofa, UniProt A5GZW8+D0VWV4+Q007T0); enzyme activity, inhibitor, DCIP reduction; pig; 0.6 µM, together with: DCIP 40 µM): 0.00527 µM/s and 0.00581 µM/s and 0.00521 µM/s

C[C@H](NCc1ccc(-c2ccc(C(F)(F)F)cc2)cc1)C(N)=O
inhibition (5-hydroxytryptamine receptor 2C (HTR2C, Homo sapiens, UniProt P28335); radioligand binding, SafetyScreen panel; 1 µM, species human, together with: 1.0 nM [3H]Mesulergine): -5%

COc1ccccc1-c1n[nH]c2nc(N[C@H]3CC[C@H](NS(=O)(=O)CC(C)C)CC3)ncc12
remaining binding (cdc2-related kinase 12 (Leishmania donovani, UniProt A0A3S7WQK2); competitor, bead pull-down competition; Leishmania donovani extract; 0.016 µM; baseline: vehicle): 14%

N[C@H](C(=O)N1CCCC1)C1CCN(c2nccc3c(-c4ncc(Cl)cc4Cl)cccc23)CC1
kcat (Protein-arginine deiminase type-3 (PADI3, Homo sapiens, UniProt Q9ULW8); enzyme activity; 0.2458 µM, together with: Ca2+ 0.25 mM): 0.0359 s⁻¹ and 0.0357 s⁻¹

CCOC(=O)[C@](CC)(CCCSCCOCCOCCNc1ccc([N+](=O)[O-])c2nonc12)NC(=O)c1ccc(C2CC2)c(Cc2ccc(F)cc2)n1
Emax (Cannabinoid receptor 2 (Cnr2, Mus musculus, UniProt P47936); cAMP, agonist): 95%

O=C1NC(=O)c2c1c1cc(F)c[n+]3c1c1c2c2cc(O)ccc2[n]1[Ru-4]312([N]=C=S)[S+]3CC[S+]1CC[S+]2CC3 (stereo not shown)
remaining activity (Serine/threonine-protein kinase Chk2 (CHEK2, Homo sapiens, UniProt O96017); enzyme activity; 100 nM, human enzyme, together with: 10 µM ATP; baseline: untreated): 34%

CS(C)(=O)=Nc1ccc(-c2ccc(-c3nc4cc(O[C@@H]5CO[C@H]6[C@@H]5OC[C@H]6O)[nH]c4cc3F)cc2)cc1
inhibition (Neuropeptide Y receptor type 2 (NPY2R, Homo sapiens, UniProt P49146); ligand displacement, radioligand; 10 µM): -8%

O=C1NC2(CC2)COc2ncc(F)cc2[C@H]2COCCN2c2ccn3ncc1c3n2
haemoglobin (Sprague-Dawley rat, female, blood; oral, 20 mg/kg/day, 4 weeks, end of treatment, subacute toxicity): 123 ± 17 g/L

CCOC(=O)[C@@H]1Cc2c(cc([N+](=O)[O-])cc2[N+](=O)[O-])[C@H](O)[C@]12C(=O)Nc1ccc(Br)cc12
remaining binding (Platelet-derived growth factor receptor beta (PDGFRB, Homo sapiens, UniProt P09619); binding, competition with immobilised ligand; 0.1 µM): 81%

CC(C)CC(O)(CC(C)C)c1cn(C(=O)N2CCCC2)nn1
SILAC activity ratio (Isoamyl acetate-hydrolyzing esterase 1 homolog (Iah1, Mus musculus, UniProt Q9DB29); probe labelling, inhibitor, competitive ABPP-SILAC, refers to: Iah1; mouse T cells; concentration not given, 4 h, single peptide; baseline: treated over DMSO cells, lower = stronger inhibition): 1.22 and 1.19 and 1.12 and 1.16 and 1.28

CC(C)[C@H]1NC(=O)C[C@H]2/C=C/CCSSC[C@@H](NC1=O)C(=O)N[C@H](Cc1cccc3ccccc13)C(=O)NCC(=O)O2
inhibition (Serine/threonine-protein kinase D3 (PRKD3, Homo sapiens, UniProt O94806); enzyme activity, inhibitor; 10 µM): 8.9%

CN(C)[C@H]1C[C@@]23CC[C@@]4(O2)C(=CC[C@]2(C)[C@@H](c5ccc6ccncc6c5)CC[C@H]24)C=C3[C@@H](O)[C@@H]1O
inhibition (Phosphorylase b kinase gamma catalytic chain, liver/testis isoform (PHKG2, Homo sapiens, UniProt P15735); ATP probe labelling, inhibitor, KiNativ profiling; 1 µM): -5.1%

COC1C2(O)C(=O)N3C=CC(C)(C)c4[nH]c5ccccc5c4C=C3C(=O)N2C23C(C)C(C)(C)N2c2ccccc2C13O (stereo not shown)
response amplitude (uncharacterized protein (Ixodes scapularis, UniProt A0A0N9E2I2); two-electrode voltage clamp; Xenopus oocytes; concentration not given, together with: ivermectin): decreased

O[C@H]1[C@H](O)[C@@H](Cl)C=C[C@@H]1O
kreact (yeast alpha-glucosidase; reactivation, covalent inhibitor; pH 7.0, 37 °C): 2.35e-06 ± 1.7e-07 s^–1

O=C(CN1CN(c2ccccc2)C2(CCN(C(=O)c3cnc4[nH]ncc4c3)CC2)C1=O)NCC(F)(F)F
inhibition (Epidermal growth factor receptor (EGFR, Homo sapiens, UniProt P00533, L861Q); inhibitor; concentration not given): < 50%

CCN(CC)CCOc1ccc(-c2nnn(Cc3ccc(OC)cc3)c2N)cc1
activation (Endothelin-1 receptor (EDNRA, Homo sapiens, UniProt P25101); calcium flux, FLIPR; HEK293; 12000 nM): 0.28%

NCC(=O)N[C@H](Cc1ccccc1)C(=O)N[C@@H](Cc1ccccc1)C(=O)N[C@@H](CC(N)=O)C(=O)O
fold loss of potency (uncharacterized protein (Aplysia californica, UniProt A0ABM0K1K5); IP1 accumulation; CHO-K1 transfected): > 30 fold

Excerpt of the above:
O=C(CN1CN(c2ccccc2)C2(CCN(C(=O)c3cnc4[nH]ncc4c3)CC2)C1=O)NCC(F)(F)F
inhibition (Epidermal growth factor receptor (EGFR, Homo sapiens, UniProt P00533, L861Q); inhibitor; concentration not given): < 50%

CON(C(=O)c1cn(C)nc1C(F)F)C(C)Cc1c(Cl)cc(Cl)cc1Cl (stereo not shown)
reaction velocity (SDHD/SDHC/SDHB (Sus scrofa, UniProt A5GZW8+D0VWV4+Q007T0); enzyme activity, inhibitor, DCIP reduction; pig; 0.6 µM, together with: DCIP 40 µM): 0.00527 µM/s and 0.00581 µM/s and 0.00521 µM/s
